Published values pooled from the literature.
Protocols differ between the studies behind these lines. Numbers after ± are the reported error.

Structure (SMILES)	target or system	test	system	conditions	how to read	measurement	value
CC(C)=CCc1cc2c(cc1O)O[C@H](c1ccc(O)cc1)CC2=O			liver microsomes	seven species incl. human		species difference in phase I CLint	~12.1 fold
CC(C)c1nc(CN(C)C(=O)N[C@@H](CCN2CCOCC2)C(=O)N[C@H](CC[C@H](Cc2ccccc2)NC(=O)OCc2cncs2)Cc2ccccc2)cs1		item: visual impairment	human	oral, 150 mg		drug-related TEAE incidence	0%
Cc1nc(-c2cnc(NC(C)C)n(C)c2=O)ccc1Oc1ccnc(-c2cnn(C)c2)c1			Beagle dog, male, plasma	oral, 10 mg/kg, crossover study, mean		apparent volume of distribution	11.2 L/kg
C[C@@H](O)[C@H]1C(=O)N2C(C(=O)O)=C(SCCN=CN)C[C@H]12		starch gel membrane permeability	Gram-negative envelope surrogate	200 µM, 45 min, pH 7.4		amount permeated	3.13 nmol
NC[C@@]1(CC(=O)O)[C@@H]2CC[C@H]3C[C@@H]2[C@@H]1C3			human, normal renal function, plasma	oral, 20 mg single dose, geometric mean		MRT(0-inf)	5.37 h
CCOc1c([C@H](C)n2nc(C)c3c(N)ncnc32)cc(Cl)c(F)c1[C@@H]1CNC(=O)C1		ECG	previously treated B-cell malignancy patients	oral, 15 mg once daily, baseline below thresholds		observations with PR ≤200 ms	66.7%
O=C(O)CCc1cc(O)cc(O)c1			human plasma	mean		plasma concentration	1100 nM
O=Cc1cc2c(cc1F)C(=O)N(C1CCC(=O)NC1=O)C2 (stereo not drawn)			cynomolgus monkey, male	oral, 0.3 mg/kg parent drug, 0.5 h		plasma concentration	0.27 ng/mL
O=C(O)[C@H]1O[C@@H](Oc2cc(O)cc(/C=C/c3ccc(O)cc3)c2)[C@H](O)[C@@H](O)[C@@H]1O			human, cerebrospinal fluid			samples above LOQ	0%
Cc1nc(-c2ccc(OCC(C)C)c(C#N)c2)sc1C(=O)O			human, plasma	oral, 40 mg once daily, with: verinurad 5 mg		AUC(0-24)	5620 ng·h/mL
COc1ccc2[nH]c([S+]([O-])Cc3ncc(C)c(OC)c3C)nc2c1 (stereo not drawn)		LC-MS/MS	healthy Chinese, CYP2C19*3 GA, plasma	oral, 20 mg		Cmax	588 ± 498 ng/mL
Cc1c2oc3c(C)ccc(C(=O)N[C@@H]4C(=O)N[C@H](C(C)C)C(=O)N5CCC[C@H]5C(=O)N(C)CC(=O)N(C)[C@@H](C(C)C)C(=O)O[C@@H]4C)c3nc-2c(C(=O)N[C@@H]2C(=O)N[C@H](C(C)C)C(=O)N3CCC[C@H]3C(=O)N(C)CC(=O)N(C)[C@@H](C(C)C)C(=O)O[C@@H]2C)c(N)c1=O		population PK model	human			V1	3.9 L/70 kg
C[C@H](NC(=O)/C(C#N)=C/c1cccc(Br)n1)c1ccccc1		LC-MS/MS	patients, plasma	oral, 1 mg/kg, cycle 1 day 8		AUC(all)	40 ng·h/mL
CCc1cc(C(=O)NC)c2nccc(N3CCc4c(cc(Cn5ccnc5)cc4-c4cn(C)nc4C(F)(F)F)C3=O)c2c1			Sprague Dawley rats	oral, 50 mg/kg once daily, 7 days		serum DBIL level	0.8 ± 0.14 µmol/L
Cc1ccc(Sc2ccccc2N2CCNCC2)c(C)c1		item: Diarrhea	healthy adult men	oral, 10 mg daily, 12 days		participants with TEAE	0%
CNC(=O)c1ccc(-c2cnc3ncc(Cc4ccc5ncccc5c4)n3n2)cc1F		CTCAE v4.0, any causality	human gastric cancer patients	oral, 600 mg twice daily, expansion cohort at RP2D		back pain incidence (all grades)	11%
O=C(O)CCC(=O)O.[2H]C([2H])([2H])Oc1cc(C)c2[nH]ccc2c1CN1CC[C@@H](C2CC2)C[C@H]1c1ccc(C(=O)O)cc1			healthy Chinese subjects	50 mg, single ascending dose		TEAE urinary sediment detected	0%
O=C(Nc1nc2cccc(-c3ccc(CN4CCS(=O)(=O)CC4)cc3)n2n1)C1CC1		item: diarrhoea	human rheumatoid arthritis patients	oral, 300 mg once daily, 4 weeks, regardless of relatedness		treatment-emergent adverse events	0%
NC(=O)N1c2ccccc2C=Cc2ccccc21		item: faeces hard	human male	oral, dose not given, AEs, treatment-related, on drug, CTCAE		adverse events incidence	7%
COc1c(O)cc2c(c1O)C(=O)c1c(cc(C)c(O)c1OC)C2=O	HepaRG co-cultured with HK-2	MTT		66.67 µM, 24 h	relative to: untreated control	cell viability	92.7 ± 11%
CN1CC[C@H](c2c(O)cc(O)c3c(=O)cc(-c4ccccc4Cl)oc23)[C@H](O)C1	COS-7			100 µM, 24 h, 0.1% DMSO, unit not given	relative to: control	confluence	0.66 ± 0.03
OCc1nc2ccc(NCc3ccc(C(F)(F)F)cc3)cc2[nH]1			male Balb/c mice, liver	oral, 10 mg/kg, 6 h	relative to: tissue over plasma	tissue/plasma ratio	8.6 ± 0.6
O=C(Nc1cnc2ccccc2c1)c1cc2[nH]ccc2cc1Cl	COS-7			10 µM, 24 h, 0.1% DMSO, unit not given	relative to: vehicle control	apoptotic cells	1.44 ± 1.12
O=C1c2cccc(O)c2C(=O)c2c(O)cc(CO)cc21	HepaRG co-cultured with HK-2	MTT		133.33 µM, 24 h	relative to: untreated control	cell viability	115 ± 7.3%

Some of these lines once more:
Structure (SMILES)	target or system	test	system	conditions	how to read	measurement	value
Cc1ccc(Sc2ccccc2N2CCNCC2)c(C)c1		item: Diarrhea	healthy adult men	oral, 10 mg daily, 12 days		participants with TEAE	0%
